Measured values pooled from the literature.
Numbered parts are unrelated; each lists some results of a single study. Changes are numbered by the printed parent chain.

Block 1
Target: Protein max, full length (MAX, Homo sapiens, UniProt P61244-2, residues 1-151)
Method: protein-binding microarray
Form: double-stranded DNA, one strand shown
Sample: in vitro
Concentration: not given
Notes: k-mer, scored over probes, only values ≥0.25
Direction: higher = stronger binding
The E-score of `CGTGCACG` is reported as 0.456.
The E-score of `CGTAGCAC` is reported as 0.267.
With `CATGTAAA` the E-score was 0.263.
`AACCATGC` gave an E-score of 0.435.
The E-score of `ATAGCGTG` is reported as 0.394.
For `AGCGTGGA`, the E-score was 0.4.
`ACGAGGAA` has an E-score of 0.339.
`CCGTGCTA` has an E-score of 0.265.

Block 2
Target: TAR DNA-binding protein 43, full length, His tag (TARDBP, Homo sapiens, UniProt Q13148, residues 1-414)
Method: RNA Bind-n-Seq
Form: RNA
Sample: in vitro
Concentration: 20 nM
Notes: 6-mer, flanks averaged, single round
Added: 150 mM KCl
Relative to: input library
Direction: higher = stronger binding
`AUUUAA`: “6-mer enrichment (R)” 0.604.
For `CCCACG`, “6-mer enrichment (R)” read 0.713.
`UUUGAA`: “6-mer enrichment (R)” 0.72.
For `GUCGCC`, “6-mer enrichment (R)” read 0.849.
For `AAUUGU`, “6-mer enrichment (R)” read 0.662.
Under “6-mer enrichment (R)”, `CUGCAC` is recorded as 0.675.
Under “6-mer enrichment (R)”, `AGACGG` is recorded as 1.65.
`UCUCGU`: “6-mer enrichment (R)” 0.574.

Block 3
Substitution: R98E
Target: ABI1, truncated, D143A, DHFR fusion (Arabidopsis thaliana)
Method: DHFR PCA, deep sequencing
Sample: yeast
Notes: methotrexate growth selection, single substitutions
Relative to: wild-type fitted maximum
Direction: higher = stronger binding
Parent: PYL1, truncated, DHFR fusion (Arabidopsis thaliana); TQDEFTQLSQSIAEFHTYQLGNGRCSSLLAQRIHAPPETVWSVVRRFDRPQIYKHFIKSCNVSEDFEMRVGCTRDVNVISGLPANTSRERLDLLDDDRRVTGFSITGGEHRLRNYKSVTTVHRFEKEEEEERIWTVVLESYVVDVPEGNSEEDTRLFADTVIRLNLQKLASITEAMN; partner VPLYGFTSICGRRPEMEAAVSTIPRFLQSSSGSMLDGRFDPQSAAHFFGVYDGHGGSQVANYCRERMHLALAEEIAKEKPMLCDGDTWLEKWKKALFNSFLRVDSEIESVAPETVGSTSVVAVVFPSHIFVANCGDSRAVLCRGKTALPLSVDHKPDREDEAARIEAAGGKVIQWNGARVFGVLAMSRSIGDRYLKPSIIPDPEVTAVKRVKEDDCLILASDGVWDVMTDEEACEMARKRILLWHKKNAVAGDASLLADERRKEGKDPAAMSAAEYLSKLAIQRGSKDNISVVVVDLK
For added: (+)-ABA 58 µM: “relative binding score” read 59.2%.
It gave 97.2% for “relative binding score” (added: (+)-ABA 710 µM).
For added: (+)-ABA 0.032 µM: “relative binding score” read 1.43%.
For added: (+)-ABA 0.39 µM: “relative binding score” read -0.778%.
The “relative binding score” was 97.7% (added: (+)-ABA 2500 µM).
For added: (+)-ABA 0 µM: “relative binding score” read -7.58%.

Single results of other studies
Parent: PafA, mature enzyme, eGFP fusion (Elizabethkingia meningoseptica, UniProt Q9KJX5); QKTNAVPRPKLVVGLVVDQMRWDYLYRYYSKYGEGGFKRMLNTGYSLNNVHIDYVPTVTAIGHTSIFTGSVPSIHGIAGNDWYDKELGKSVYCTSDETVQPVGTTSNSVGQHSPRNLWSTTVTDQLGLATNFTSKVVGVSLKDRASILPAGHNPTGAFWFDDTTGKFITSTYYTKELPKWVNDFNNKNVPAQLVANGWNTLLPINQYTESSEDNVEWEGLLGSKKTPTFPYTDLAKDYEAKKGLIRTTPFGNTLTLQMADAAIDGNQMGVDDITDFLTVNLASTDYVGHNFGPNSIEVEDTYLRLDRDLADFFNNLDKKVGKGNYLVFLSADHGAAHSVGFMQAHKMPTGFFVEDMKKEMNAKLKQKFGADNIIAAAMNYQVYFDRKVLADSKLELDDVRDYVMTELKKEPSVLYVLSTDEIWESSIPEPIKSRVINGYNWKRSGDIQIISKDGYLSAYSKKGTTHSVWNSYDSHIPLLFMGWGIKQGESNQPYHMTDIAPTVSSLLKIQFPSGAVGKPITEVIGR
`A259G`: “oxyanion analog dissociation constant” 807 nM (vanadate, free oxyanion; microfluidic competitive inhibition; in vitro, cell-free expressed; not given, derived from inhibition constants, unchanged parent 676 nM; lower = stronger binding).

A few entries again (block 1):
For `AGCGTGGA`, the E-score was 0.4.
`ACGAGGAA` has an E-score of 0.339.
`CCGTGCTA` has an E-score of 0.265.
